Results from different studies.
A part holds a random share of what one study measured. Positions count from the first letter of the parent shown.

Series 1
Target: Interferon regulatory factor 7, full length, phosphomimetic (IRF7, Homo sapiens, UniProt Q92985, residues 1-503, S101K/S471D/S472D/S475D/S476D/S477D/S483D/S484D/S487D)
Method: protein-binding microarray
Molecule type: double-stranded DNA, one strand shown
Matrix: in vitro
Tested at: 250 nM
Setting: 60-bp whole probe
Together with: salmon DNA 0.4 mg/ml
Reference: random background probes
Direction: higher = stronger binding
All sequences stand within: GCCTAGCAC … GTCTTGATTCGCTTGACGCTGCTG
Construct (chain): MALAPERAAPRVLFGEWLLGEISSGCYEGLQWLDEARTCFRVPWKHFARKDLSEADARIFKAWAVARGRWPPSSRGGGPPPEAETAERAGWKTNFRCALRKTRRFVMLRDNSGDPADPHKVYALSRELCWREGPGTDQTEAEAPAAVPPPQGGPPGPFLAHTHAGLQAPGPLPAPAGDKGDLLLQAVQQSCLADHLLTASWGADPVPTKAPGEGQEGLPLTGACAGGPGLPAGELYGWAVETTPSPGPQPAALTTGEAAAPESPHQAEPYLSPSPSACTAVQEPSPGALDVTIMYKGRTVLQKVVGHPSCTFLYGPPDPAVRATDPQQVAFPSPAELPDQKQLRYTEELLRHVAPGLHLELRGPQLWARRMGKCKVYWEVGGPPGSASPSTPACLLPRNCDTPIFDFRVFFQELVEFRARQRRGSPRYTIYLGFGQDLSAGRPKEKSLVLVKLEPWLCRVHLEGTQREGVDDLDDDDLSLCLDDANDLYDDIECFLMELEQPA
For `TCATAACTCAAGATTCCTACTGTGCTA`, the log fluorescence was 0.264 z-score.
`TTAGGTCTCGGTCGCGGTTAGTGCTAG` gave a log fluorescence of 0.584 z-score.
For `TTTCTAATGTTTTTTAAAGTGTGCTAG`, the log fluorescence was 0.914 z-score.
For `GACGGCATCGGACTGGGGACGTGCTAG`, the log fluorescence was -0.733 z-score.
The log fluorescence of `TTCTACTTCTGTTTTTGCTTGTGCTAG` is reported as 0.804 z-score.
For `TCACCTGAATGAAAACATACTGTGCTA`, the log fluorescence was -0.232 z-score.
The log fluorescence of `TCATAAACCATTTTGGTACTGTGCTAG` is reported as 0.167 z-score.
With `TCACTTCTGTTTTTGCTACTGTGCTAG` the log fluorescence was 1.05 z-score.
`TCATTTCTGGTTCCCATACTGTGCTAG` has a log fluorescence of 1.9 z-score.
For `CAGGGGCTGCCTGGATGCCGGTGCTAG`, the log fluorescence was -1.63 z-score.
With `GCAGGTCTGGACCCAGACTCGTGCTAG` the log fluorescence was -0.55 z-score.
`GACGGTCTCGGACTGGCGACGTGCTAG` has a log fluorescence of -0.0671 z-score.
The log fluorescence of `GAGGAACTGAGTATCGAGACGTGCTAG` is reported as 0.0481 z-score.
`TCATTTCTTTTATTAGTACTGTGCTAG` gave a log fluorescence of 1.87 z-score.
`TTAGGACTGCTCCTGCTTTAGTGCTAG` has a log fluorescence of -0.586 z-score.
The log fluorescence of `TTAGGTATCGGACTGGGCTAGTGCTAG` is reported as 0.0184 z-score.
For `TATTTTTACATTATTACCTCGTGCTAG`, the log fluorescence was 1.27 z-score.
`GACGATTCCAGTTTCGAGACGTGCTAG` gave a log fluorescence of 4.87 z-score.
The log fluorescence of `TTAGGACTGGGGACTGGGTTTGTGCTA` is reported as -0.422 z-score.
`TTATGTCTCGGACTGGGTTAGTGCTAG` gave a log fluorescence of 0.345 z-score.
`GACGGTTTTCTTCTCCTGACGTGCTAG` has a log fluorescence of 1.47 z-score.
`TTAGGTATCGTTATCGGTTAGTGCTAG` has a log fluorescence of 2.14 z-score.
`CAACTTTTTTTAATTGAGAAGTGCTAG` has a log fluorescence of 0.333 z-score.
`ATAGATATCGGGACTGGATTAGTGCTA` has a log fluorescence of -0.126 z-score.
`GGCGATATCGGGACTGGAGACGTGCTA` has a log fluorescence of -0.649 z-score.

Series 2
Target: CCNE2, cyclin fold, Cln2 fusion (human)
Method: yeast growth competition, sequencing
Matrix: yeast
Setting: strong parent motif
Reference: not given
Direction: higher = stronger binding
Starting sequence: INSM1 docking peptide (human); PKAIRKLHFEDEV
Under “normalised enrichment score”, `A3P` is recorded as 0.388.
For `K6R`, “normalised enrichment score” read 1.39.
`H8K` — result for “normalised enrichment score”: 1.6.
Under “normalised enrichment score”, `R5Y` is recorded as 0.0184.
Under “normalised enrichment score”, `E10V` is recorded as 1.2.
`D11V` — result for “normalised enrichment score”: 1.33.
`A3W` — result for “normalised enrichment score”: 0.614.
For `K2Y`, “normalised enrichment score” read 1.1.
For `A3G`, “normalised enrichment score” read 0.748.
`R5K`: “normalised enrichment score” 0.16.
`H8Y`: “normalised enrichment score” 1.86.
Under “normalised enrichment score”, `D11Q` is recorded as 1.56.
`L7A`: “normalised enrichment score” -0.0137.
Under “normalised enrichment score”, `E12C` is recorded as 2.59.

Series 3
Target: ABI1, truncated, D143A, DHFR fusion (Arabidopsis thaliana)
Method: DHFR PCA, deep sequencing
Matrix: yeast
Setting: methotrexate growth selection, single substitutions
Together with: (+)-ABA 0.39 µM
Reference: wild-type fitted maximum
Direction: higher = stronger binding
Starting sequence: PYL1, truncated, DHFR fusion (Arabidopsis thaliana); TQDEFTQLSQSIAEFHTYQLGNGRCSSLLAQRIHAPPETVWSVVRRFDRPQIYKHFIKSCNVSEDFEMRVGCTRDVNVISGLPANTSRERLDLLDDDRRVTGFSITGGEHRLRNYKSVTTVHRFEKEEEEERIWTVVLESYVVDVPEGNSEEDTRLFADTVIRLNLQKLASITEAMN
`I79M` — result for “relative binding score”: 18.7%.
Under “relative binding score”, `R24E` is recorded as 22.6%.
`H16A` — result for “relative binding score”: -8.89%.
For `R90I`, “relative binding score” read 2.54%.
Under “relative binding score”, `G108L` is recorded as -9.75%.
`E131S` — result for “relative binding score”: 56.8%.
Under “relative binding score”, `V100G` is recorded as -6.74%.
`V62T` — result for “relative binding score”: 17.3%.
Under “relative binding score”, `V143K` is recorded as -10.6%.
`E125H` — result for “relative binding score”: 54.7%.
`D144G`: “relative binding score” 1.94%.
`M68P`: “relative binding score” 3.6%.
For `I172Q`, “relative binding score” read -5.58%.
For `N77Q`, “relative binding score” read 74.3%.
`D97L` — result for “relative binding score”: 11.2%.
`E4D` — result for “relative binding score”: 39%.

Series 4
Target: Prothrombin, mature alpha-thrombin (F2, Homo sapiens, UniProt P00734)
Method: aptamer microarray, sandwich
Molecule type: DNA with 2'F-ANA
Matrix: in vitro
Tested at: 200 nM
Setting: whole 15-mer aptamer, many near background
Together with: Cy3 exosite-II aptamer, 400 nM
Direction: higher = stronger binding
Strand: GGTTGGTGTGGTTGG
`2'F-ANA at 1 3 5 8 10 11 13 14` — result for “mean fluorescence intensity”: 49.4 a.u.
`2'F-ANA at 3 8 9 10 11 12 14`: “mean fluorescence intensity” 464 a.u.
`2'F-ANA at 5 6 7 9 10 11 12`: “mean fluorescence intensity” 56.1 a.u.
For `2'F-ANA at 2 3 4 6 8 9 10 14`, “mean fluorescence intensity” read 149 a.u.
For `2'F-ANA at 3 4 5 6 9 11 12 13 14 15`, “mean fluorescence intensity” read 55.7 a.u.
Under “mean fluorescence intensity”, `2'F-ANA at 3 4 5 7 9 12 14` is recorded as 53.9 a.u.
Under “mean fluorescence intensity”, `2'F-ANA at 1 2 3 5 6 7 9 10 12 14 15` is recorded as 64.2 a.u.
For `2'F-ANA at 1 4 5 7 8 11 14`, “mean fluorescence intensity” read 47.2 a.u.
For `2'F-ANA at 4 5 6 13`, “mean fluorescence intensity” read 51 a.u.
Under “mean fluorescence intensity”, `2'F-ANA at 2 3 4 5 6 7 8 9 10 11 12` is recorded as 59.1 a.u.
`2'F-ANA at 1 2 3 5 7 10 14` — result for “mean fluorescence intensity”: 47.7 a.u.
`2'F-ANA at 1 4 9 11 14 15` — result for “mean fluorescence intensity”: 52.2 a.u.
`2'F-ANA at 1 2 3 4 5 6 8 9 11 12 14`: “mean fluorescence intensity” 45.6 a.u.
`2'F-ANA at 1 2 3 5 6 7 11 13 15` — result for “mean fluorescence intensity”: 74.9 a.u.
`2'F-ANA at 4 6 7 10 13 14`: “mean fluorescence intensity” 57.1 a.u.
For `2'F-ANA at 3 8 9 10`, “mean fluorescence intensity” read 597 a.u.
For `2'F-ANA at 1 2 5 8 9 10 11 13 15`, “mean fluorescence intensity” read 61.3 a.u.
Under “mean fluorescence intensity”, `2'F-ANA at 1 2 3 4 5 8 11 12 13 14` is recorded as 48.2 a.u.
`2'F-ANA at 4 6 7 8 9 10 13 15` — result for “mean fluorescence intensity”: 79.6 a.u.
`2'F-ANA at 2 5 6 7 8 9 10 11 12 13 14`: “mean fluorescence intensity” 47.7 a.u.
Under “mean fluorescence intensity”, `2'F-ANA at 3 5 6 10 12 13 14` is recorded as 46.9 a.u.
`2'F-ANA at 2 3 4 6 7 8 12 13 15`: “mean fluorescence intensity” 632 a.u.
Under “mean fluorescence intensity”, `2'F-ANA at 2 5 7 12 13` is recorded as 121 a.u.
`2'F-ANA at 2 3 4 6 11 12 14 15` — result for “mean fluorescence intensity”: 303 a.u.
For `2'F-ANA at 1 3 8 13 14`, “mean fluorescence intensity” read 95.6 a.u.

Series 5
Target: UBE2L6 UBC core domain (UniProt O14933)
Method: yeast two-hybrid
Matrix: yeast
Setting: mostly zero background
Reference: not given
Direction: higher = stronger interaction
B1: IRF2BPL RING domain (UniProt Q9H1B7); chain SPMANSGPLCCTICHERLEDTHFVQCPSVPSHKFCFPCSRESIKAQGATGEVYCPSGEKCPLVGSNVP
B2: ARK2C RING domain (UniProt Q6ZSG1); chain EGEESDTDEKCTICLSMLEDGEDVRRLPCMHLFHQLCVDQWLAMSKKCPICRVDIETQLGAD
B3: CUL9 RING domain (UniProt Q8IWT3); chain AQAVPVRPDHCPVCVSPLGCDDDLPSLCCMHYCCKSCWNEYLTTRIEQNLVLNCTCPIADCPAQPTGAFIR
B4: MID1 RING domain (UniProt O15344); chain METLESELTCPICLELFEDPLLLPCAHSLCFNCAHRILVSHCATNESVESITAFQCPTCRHVITLSQRGL
B5: UHRF2 RING domain (UniProt Q96PU4); chain CGGDPEKKCHSCSCRVCGGKHEPNMQLLCDECNVAYHIYCLNPPLDKVPEEEYWYCPSCKTDSSEVVKAGER
Residues (chain): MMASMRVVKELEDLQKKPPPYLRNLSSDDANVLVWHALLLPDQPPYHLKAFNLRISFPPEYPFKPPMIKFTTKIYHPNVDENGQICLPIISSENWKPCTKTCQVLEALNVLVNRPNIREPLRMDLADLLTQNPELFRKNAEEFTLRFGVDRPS
Under “lacZ reporter activity”, `B1 (IRF2BPL RING domain)` is recorded as 0.
`QLRRLQEERTCKVCMDKEVSVVFIPCGHLVVCQECAPSLRKCPICRGIIKGTVRTF (BIRC2 RING domain (UniProt Q13490))` — result for “lacZ reporter activity”: 0.
Under “lacZ reporter activity”, `VTLSLTLPITCHICLGKVRQPVICINNHVFCSICIDLWLKNNSQCPACRVPITPENPCK (OBI1 RING domain (UniProt Q5W0B1))` is recorded as 0.
`B2 (ARK2C RING domain)`: “lacZ reporter activity” 0.
For `B3 (CUL9 RING domain)`, “lacZ reporter activity” read 0.
`B4 (MID1 RING domain)`: “lacZ reporter activity” 0.
`KTLSRFGIQPCSICLGDAKDPVCLPCDHVHCLRCLRAWFASEQMICPYCLTALPDEFSPA (RNF213 RING domain (UniProt Q63HN8))`: “lacZ reporter activity” 0.
Under “lacZ reporter activity”, `B5 (UHRF2 RING domain)` is recorded as 0.

Some of these lines once more (series 1):
With `TCACTTCTGTTTTTGCTACTGTGCTAG` the log fluorescence was 1.05 z-score.
`TCATTTCTGGTTCCCATACTGTGCTAG` has a log fluorescence of 1.9 z-score.
For `CAGGGGCTGCCTGGATGCCGGTGCTAG`, the log fluorescence was -1.63 z-score.
With `GCAGGTCTGGACCCAGACTCGTGCTAG` the log fluorescence was -0.55 z-score.
`GACGGTCTCGGACTGGCGACGTGCTAG` has a log fluorescence of -0.0671 z-score.
The log fluorescence of `GAGGAACTGAGTATCGAGACGTGCTAG` is reported as 0.0481 z-score.
`TCATTTCTTTTATTAGTACTGTGCTAG` gave a log fluorescence of 1.87 z-score.
`TTAGGACTGCTCCTGCTTTAGTGCTAG` has a log fluorescence of -0.586 z-score.
The log fluorescence of `TTAGGTATCGGACTGGGCTAGTGCTAG` is reported as 0.0184 z-score.
For `TATTTTTACATTATTACCTCGTGCTAG`, the log fluorescence was 1.27 z-score.
`GACGATTCCAGTTTCGAGACGTGCTAG` gave a log fluorescence of 4.87 z-score.
The log fluorescence of `TTAGGACTGGGGACTGGGTTTGTGCTA` is reported as -0.422 z-score.
